Experimental data of several laboratories.
Lines come from different studies, so protocols differ. ± marks the error that the study gave.

With `Cn1nc2c(=O)n(C3CC3)cnc2c1[C@](O)(c1cnc(C(F)(F)F)c(Cl)c1)C(F)(F)F` the CLint,u was 12.7 mL/min/kg (rat Sprague-Dawley male, blood; intravenous, 1 mg/kg).
`C=CC(=O)N1CCC(c2ccc(C(N)=O)c(-c3ccc(Oc4ccccc4)cc3)n2)CC1` gave an incidence of 0.9% (serious adverse event Dizziness; patients with relapsed/refractory MCL; oral).
`CCCOc1ccc([C@H]2CNC(=O)N2c2ccc3[nH]cnc3c2)cc1` gave a CSF concentration of 12.6 ng/mL (human, elderly, fasted, cerebrospinal fluid; oral, 300 mg twice daily, capsule, 12 h after final dose, day 7, geometric mean).
With `CCn1cc(C(=O)N2CCOCC2)c(=O)c2cc(NC3Cc4ccccc4C3)cnc21` the Tmax was 6 h (human, fed; oral suspension, 600 mg single dose, median).
The remaining compound of `COc1cc2c3cc1Oc1c(OC)c(OC)cc4c1[C@@H](Cc1ccc(O)c(c1)Oc1ccc(cc1)C[C@@H]3N(C)CC2)N(C)CC4` is reported as 101% (mouse plasma, K3EDTA; 0.5 h, on ice).
`CC(C)c1nc(N(C)S(C)(=O)=O)nc(-c2ccc(F)cc2)c1/C=C/[C@@H](O)C[C@@H](O)CC(=O)O` — result for “increase in Cmax”: 220% (healthy human volunteers, plasma; oral, dose not given, BCRP probe substrate, together with: multiple-dose momelotinib; baseline: compound alone).
`O=C(Nc1nc2cccc(-c3ccc(CN4CCS(=O)(=O)CC4)cc3)n2n1)C1CC1`: “treatment-emergent adverse events” 0% (item: arthralgia; human rheumatoid arthritis patients; oral, 75 mg once daily, 4 weeks, regardless of relatedness).
For `Nc1cccc2ccc(/C=C/C(=O)c3ccc(O)cc3)cc12`, the emission maximum was 548 nm (toluene; 20 °C).
With `Cl.[2H]C([2H])([2H])CC(=O)c1cnc(NC(=O)C2CC2)cc1Nc1cccc(-c2ncn(C([2H])([2H])[2H])n2)c1OC` the AUC(0-24 h) was 1660 ng·h/mL (geometric mean; human; oral, 17.5 mg single dose, fasted, liquid).
`N[C@H]1C(O)O[C@H](CO)[C@@H](O)[C@@H]1O` (some centres unmarked) has an osmolality of 3 mOsmol/kg (aqueous solution; 5 mM, together with: glucose).
`COc1ccnc(C[S+]([O-])c2nc3ccc(OC(F)F)cc3[nH]2)c1OC` (centres unmarked) has a dose-normalised AUC of 8.7 µg·h/mL per mg/kg (human, plasma; oral, dose not given, median).
With `Cc1ccc(=O)n(-c2ccccc2)c1` the Vd/F was 52.1 L (healthy human; oral, 600 mg single, alone).
Under “decrease in transit rate constant”, `N[C@@H]1c2cccnc2[C@H](OC(=O)N2CCC(n3c(=O)[nH]c4ncccc43)CC2)CC[C@H]1c1cccc(F)c1F` is recorded as 70.6% (human; oral, fed state; baseline: fasted state).
With `CC[C@H](C)CCCCC(=O)N[C@@H](CCN)C(=O)N[C@H](C(=O)N[C@@H](CCN)C(=O)N[C@H]1CCNC(=O)[C@H]([C@@H](C)O)NC(=O)[C@H](CCN)NC(=O)[C@H](CCN)NC(=O)[C@H](CC(C)C)NC(=O)[C@@H](Cc2ccccc2)NC(=O)[C@H](CCN)NC1=O)[C@@H](C)O` the Vz increase was 60% (long-term haemodialysis patients, plasma; IV, 0.75 mg/kg; baseline: healthy subjects).
With `COc1ccc2c(c1)CN(C(=O)CCN1CCC(Cc3ccccc3)CC1)CC[S@@+]2[O-]` the heart rate was 81 ± 11 beats/min (telemetry; conscious dog; intravenous, 8 mg/kg, 4 h).
`CNC(=O)c1ccc(-c2cnc3ncc(Cc4ccc5ncccc5c4)n3n2)cc1F`: “Diarrhoea dose reduction/interruption” 3% (Japanese patients; oral, 400 mg, any grade).
For `O=C(Cc1ccc(OCCN2CCCC2)cc1)Nc1cc(C2CC2)[nH]n1`, the logP was 2.86 (octanol/buffer; pH 11).
Under “urinary phosphate excretion change”, `Cc1ccc([C@@H]2O[C@H](CO)[C@@H](O)[C@H](O)[C@H]2O)cc1Cc1ccc(-c2ccc(F)cc2)s1` is recorded as -58.2 mg (item: inorganic phosphorus; Japanese type 2 diabetes patients; 100 mg, day 16, 24 h urine collection; baseline: baseline).
The logP of `O=C(CSc1nnc(-c2ccc([N+](=O)[O-])cc2)n1-c1ccccc1)N1CCOCC1` is reported as 1.72 (octanol/buffer; pH 11, known kinase inactives set).
Under “zero-order absorption duration”, `NC1(C(=O)N[C@@H](CCO)c2ccc(Cl)cc2)CCN(c2nc[nH]c3nccc2-3)CC1` is recorded as 45 h (human).

A few entries again:
For `O=C(Cc1ccc(OCCN2CCCC2)cc1)Nc1cc(C2CC2)[nH]n1`, the logP was 2.86 (octanol/buffer; pH 11).
Under “urinary phosphate excretion change”, `Cc1ccc([C@@H]2O[C@H](CO)[C@@H](O)[C@H](O)[C@H]2O)cc1Cc1ccc(-c2ccc(F)cc2)s1` is recorded as -58.2 mg (item: inorganic phosphorus; Japanese type 2 diabetes patients; 100 mg, day 16, 24 h urine collection; baseline: baseline).
